# Results of several laboratories.
# Lines come from different studies, so protocols differ. Several values in a cell are separate wells, animals, samples, runs or records.
Compound,cell line,test,conditions,scale,viability
c1cc2nc(c1)-c1cccc(n1)CCCc1ccc(cc1)OCCCCCCOc1ccc(cc1)CCC2,HEK293,"cell growth or viability, MTT","200 µM, 24 h",,51.5%
COc1cc(N2CCN(C(=O)C3CCCN3)CC2)ccc1Nc1ncc(Cl)c(Nc2ccccc2P(C)(C)=O)n1 (stereo not shown),Ba/F3 EML4-ALK,"cell growth or viability, CCK-8","1 µM, 6 h",,58% and 60% and 57%
N=C(N)NCCC[C@@H]1NC(=O)[C@H](CCCNC(=N)N)NC(=O)[C@@H](CCCNC(=N)N)NC(=O)[C@@H](CCCNC(=N)N)NC(=O)[C@@H](C(c2ccccc2)c2ccccc2)NC(=O)[C@H](Cc2c[nH]c3ccccc23)NC(=O)[C@@H](C(c2ccccc2)c2ccccc2)NC1=O,human liver cells,MTS,"100 µg/mL, 24 h",,> 90%
O=C(Nc1cccc(CO)c1)c1cc(-c2ccccc2)n(-c2ccccc2)n1,Vero,cell growth or viability,12.5 µM,,> 95%
CC[C@H](C)[C@@H](C(=O)N[C@@H](Cc1ccc(O)cc1)C(=O)N1CCC[C@H]1C(=O)N[C@@H](Cc1ccccc1)C(=O)O)n1cc(C(Cc2ccc(O)cc2)NC(=O)[C@@H](NC(=O)[C@H](CCCNC(=N)N)NC(=O)[C@@H](N)CC(=O)O)C(C)C)nn1 (stereo partly shown),HEK293,"cell growth or viability, MTT","50 µM, 24 h",,88.1%
O=CCNCCOn1c(=O)n(OCCNCCO)c(=O)n(OCCNCCOn2c(=O)n(OCCNCCO)c(=O)n(OCCNCCO)c2=O)c1=O,HUVEC,"cell growth or viability, MTT","12.5 µg/mL, 48 h",,43.9%
N=C(N)NCCC[C@@H]1NC(=O)[C@H](CCCNC(=N)N)NC(=O)[C@@H](Cc2ccc3ccccc3c2)NC(=O)[C@H](Cc2c[nH]c3ccccc23)NC(=O)[C@@H](Cc2ccc3ccccc3c2)NC(=O)[C@@H](CCCNC(=N)N)NC(=O)[C@@H](CCCNC(=N)N)NC1=O,human liver cells,MTS,"200 µg/mL, 24 h",,74 to 77%
CC(=O)N[C@@H](Cc1c[nH]c2ccccc12)C(=O)N[C@@H](Cc1c[nH]c2ccccc12)C(=O)N[C@@H](Cc1c[nH]c2ccccc12)C(=O)N[C@@H](Cc1c[nH]c2ccccc12)C(=O)NCCCC[C@@H]1NC(=O)[C@H](CCCNC(=N)N)NC(=O)[C@H](CCCNC(=N)N)NC(=O)[C@H](CCCNC(=N)N)NC(=O)[C@H](CCCNC(=N)N)NC(=O)[C@H](CCCNC(=N)N)NC1=O,SK-OV-3,MTS,"concentration not given, 24 h, up to 15 µM",,≥ 74%
CN1CCCNC(=O)c2cccc(c2)C(=O)NCCCN(C)CCCNc2cccc3c2C(=O)c2cccc(c2C3=O)NCCC1,Ca9-22,CCK-8,"0.05 µM, 48 h",relative to: untreated,85.9%
Cc1ccc(C(NC(=O)c2cc(-c3ccccc3)n(-c3ccccc3)n2)c2ccncc2)cc1 (stereo not shown),Vero,cell growth or viability,12.5 µM,,> 95%

# Repeated from above:
Compound,cell line,test,conditions,scale,viability
COc1cc(N2CCN(C(=O)C3CCCN3)CC2)ccc1Nc1ncc(Cl)c(Nc2ccccc2P(C)(C)=O)n1 (stereo not shown),Ba/F3 EML4-ALK,"cell growth or viability, CCK-8","1 µM, 6 h",,58% and 60% and 57%
